Published values gathered from unrelated publications.
“And” joins repeats or separate records; there may be more than shown. ± gives the spread as reported.

For `CNc1c(C)n(C)n(-c2ccccc2)c1=O`, the trans-stimulation ratio was 1.2 (human H+/organic cation antiporter; hCMEC/D3; 250 µM, 2 min, added: 1 µM DPH preloading 30 min; baseline: control).
For `C#Cc1cc(-c2cc(Nc3nc(N[C@@H](C)c4ccc(F)cn4)ncc3Cl)n[nH]2)ccc1C=O`, the inhibition was 17.3% and 20.1% (PRKAR1A-RET kinase fusion, human; kinase activity, inhibitor; 0.2 µM).
`CCCCN1CCCC[C@H]1C(=O)Nc1c(C)cccc1C` gave a trans-stimulation ratio of 0.43 (human H+/organic cation antiporter; hCMEC/D3; 250 µM, 2 min, added: 1 µM DPH preloading 30 min; baseline: control).
For `NCCOc1cc(C(=O)Nc2cc(OCCN3CCCC3)c3ccccc3n2)nc(C(=O)Nc2cc(OCCN3CCCC3)c3ccccc3n2)c1`, the ΔTm was 5.9 ± 0.7 K (Bcl2 G-quadruplex DNA; FRET melting; 1 µM, pH 7.4, added: 60 mM potassium).
`CSCC[C@@H]1NC(=O)[C@H](C)NC(=O)[C@H](CCC(N)=O)NC(=O)[C@H](CCCNC(=N)N)NC(=O)[C@H](Cc2c[nH]c3ccccc23)NC(=O)CNC(=O)[C@H](CCSC)NC(=O)[C@@H]2CCCN2C(=O)[C@H](C)NC(=O)[C@@H](NC(=O)CN)CSSC[C@@H]2NC(=O)CNC(=O)[C@H](C)NC(=O)[C@H](CC(C)C)NC(=O)[C@@H]3CSSC[C@@H](C(=O)NCC(=O)O)NC(=O)[C@H](Cc4ccccc4)NC(=O)CNC(=O)[C@H](CC(N)=O)NC(=O)[C@@H]4CCCN4C(=O)CNC(=O)[C@H](CSSC[C@H](NC(=O)[C@H](CCCNC(=N)N)NC1=O)C(=O)N[C@@H](CCCCN)C(=O)N[C@@H](CCC(N)=O)C(=O)N[C@@H](CC(=O)O)C(=O)N[C@@H](CO)C(=O)N[C@@H](CC(=O)O)C(=O)N3)NC(=O)[C@H](C(C)C)NC2=O` gave an IC50 of 280 nM (alternative complement pathway; inhibitor, ELISA, refers to: C5b-9; serum, normal human, 5.5%; 1 h, 37 °C, LPS-coated plate).
`Nc1nc2c(nc(Br)n2[C@@H]2O[C@@H]3COP(=O)(O)O[C@H]3[C@H]2O)c(=O)[nH]1` gave an EC50 of roughly 2300 nM (cone cGMP-gated CNG channel (Otospermophilus beecheyi); Hill fit).
`CSc1cc(Oc2ccnc3[nH]c(=O)cnc23)ccc1NC(=O)Nc1cc(C(C)(C)C)nn1-c1ccccc1`: “phospho-Thr359/Ser363 RSK1-3 to total ratio” 0.63 (p90 ribosomal S6 kinases 1-3; reverse phase protein array; patient-derived cell lines; 1 µM, 4 h, mean of three patients; baseline: DMSO).
The ΔTm of `COc1cc(C(=O)Nc2cc(OCCN3CCCC3)c3ccccc3n2)nc(C(=O)Nc2cc(OCCN3CCCC3)c3ccccc3n2)c1` is reported as 7.1 ± 1.1 K (Bcl2 G-quadruplex DNA; FRET melting; 1 µM, pH 7.4, added: 60 mM potassium).
`CN(C)CCCn1c(=O)c2cc(Br)c3c(=O)n(CCCN(C)C)c(=O)c4c5[nH]c6ncccc6[nH]c5c(c1=O)c2c34` gave a ΔTm of 1.5 ± 0.1 °C (HIV-1 LTR-III G-quadruplex; FRET melting; 0.25 µM, K+ 100 mM).
`Cc1n[nH]c2ccc(-c3cc(OC[C@@H](N)Cc4ccccc4)cnc3-c3ccoc3)cc12`: “log2 fold change” -3.3 (orf19.6492 kinase Candida albicans; MIB/MS competition binding; Candida albicans cell lysate; 10 µM; baseline: DMSO, lower = stronger binding).
The kcat of `COC1=C(OC)C(=O)C(CC=C(C)C)=C(C)C1=O` is reported as 12.8 ± 0.95 s⁻¹ (FSP1 L323A mutant; substrate; added: 100 µM co-substrate).
`COc1cc(C(=O)Nc2cc(OC)c3ccccc3n2)nc(C(=O)Nc2cc(OC)c3ccccc3n2)c1` has a ΔTm of 0.3 ± 0.3 K (Bcl2 G-quadruplex DNA; FRET melting; 1 µM, pH 7.4, added: 60 mM potassium).
The ΔTm of `CN(C)CCCn1c(=O)c2cc(Br)c3c(=O)n(CCCN(C)C)c(=O)c4c5[nH]c6ccc([N+](=O)[O-])cc6[nH]c5c(c1=O)c2c34` is reported as 2.5 ± 0.1 °C (HIV-1 LTR-III G-quadruplex; FRET melting; 0.25 µM, K+ 100 mM).
`CC(C)c1ccccc1O` — result for “average chemical shift perturbation”: 0.036 ppm (HBV core protein Cp149 dimer; solution NMR; 4 molar equivalents, pH 7.5, 295 K, average over eight residues; baseline: apo Cp149 dimer).
`Oc1ccccc1-c1n[nH]cc1-c1ccnc2ccccc12`: “log2 fold change” 0.02 (TPK2 (Candida albicans); kinase binding, MIB/MS competition; Candida albicans lysate; 1 µM; baseline: DMSO).
`N#Cc1ccn2c(-c3ccncc3)c(-c3ccc(F)cc3)nc2c1`: “log2 fold change” 0.0728 (orf19.4518 kinase Candida albicans; MIB/MS competition binding; Candida albicans cell lysate; 10 µM; baseline: DMSO, lower = stronger binding).
`Nc1ccccc1NC(=O)c1ccc(CNc2ccc(NC3=C(Cl)C(=O)c4cccnc4C3=O)cc2)cc1` — result for “histone H3/H4 acetylation”: “increased” (HDAC1-3; inhibitor, western blot; MDA-MB-231; concentration not given, 6 h).
`NCCCOc1cc(NC(=O)c2cc(OCCN)cc(C(=O)Nc3cc(OCCCN)c4ccccc4n3)n2)nc2ccccc12` has a ΔTm of 21 ± 1 K (Bcl2 G-quadruplex DNA; FRET melting; 1 µM, pH 7.4, added: 60 mM potassium).
For `COc1cc(C(=O)NS(=O)(=O)c2ccccc2C)ccc1Cc1cn(C)c2ccc(NC(=O)OC3CCCC3)cc12`, the inhibition was 94.1% and 94.9% and 93.6% and 82.6% (native VRAC; ion current, inhibitor, whole-cell patch clamp; wild-type HCT cells; 30 µM, pH 7.4, extracellular pH).
The ΔTm of `CN(C)CCCn1c(=O)c2cc(Br)c3c(=O)n(CCCN(C)C)c(=O)c4c5[nH]c6ccccc6[nH]c5c(c1=O)c2c34` is reported as 7 ± 0.7 °C (HIV-1 LTR-III G-quadruplex; FRET melting; 0.25 µM, K+ 100 mM).
`CCCCCCCC(=O)OC[C@H](COP(=O)(O)O[C@@H]1[C@H](O)[C@H](O)[C@@H](OP(=O)(O)O)[C@H](OP(=O)(O)O)[C@H]1O)OC(=O)CCCCCCC` — result for “maximal open probability”: 0.69 (Kv7.2/Kv7.3(EEE) mutant channel; channel activation, activator, activation curve fit; model 5).
`N#Cc1ccc2c(-c3ccncc3)c(-c3ccc(F)cc3)nn2c1` — result for “log2 fold change”: -0.304 (orf19.4518 kinase Candida albicans; MIB/MS competition binding; Candida albicans cell lysate; 100 nM; baseline: DMSO, lower = stronger binding).
`NCCOc1cc(NC(=O)c2cc(OCc3ccc(F)cc3)cc(C(=O)Nc3cc(OCCN)c4ccccc4n3)n2)nc2ccccc12` gave a ΔTm of 13.2 ± 0.8 K (Bcl2 G-quadruplex DNA; FRET melting; 1 µM, pH 7.4, added: 60 mM potassium).
With `N[C@@H]1CONC1=O` the trans-stimulation ratio was 1.25 (human H+/organic cation antiporter; hCMEC/D3; 250 µM, 2 min, added: 1 µM DPH preloading 30 min; baseline: control).
For `CN(C)CCCn1c(=O)c2cc(Br)c3c(=O)n(CCCN(C)C)c(=O)c4c5[nH]c6ccc(C(=O)O)cc6[nH]c5c(c1=O)c2c34`, the ΔTm was 3.7 ± 1 °C (HIV-1 LTR-III G-quadruplex; FRET melting; 0.25 µM, K+ 100 mM).
`NCCCOc1cc(NC(=O)c2cccc(C(=O)Nc3cc(OCCCN)c4ccccc4n3)n2)nc2ccccc12` has a ΔTm of 22.7 ± 0.7 K (Bcl2 G-quadruplex DNA; FRET melting; 1 µM, pH 7.4, added: 60 mM potassium).
Under “log2 fold change”, `c1coc(-c2n[nH]cc2-c2ccnc3ccccc23)c1` is recorded as 0.44 (RIM15 (Candida albicans); kinase binding, MIB/MS competition; Candida albicans lysate; 1 µM; baseline: DMSO).
With `NCCOc1cc(C(=O)Nc2cc(OCCN)c3ccccc3n2)nc(C(=O)Nc2cc(OCCN)c3ccccc3n2)c1` the ΔTm was 19.2 ± 0.9 K (Bcl2 G-quadruplex DNA; FRET melting; 1 µM, pH 7.4, added: 60 mM potassium).
`CCCCNc1ccc(C(=O)OCCN(C)C)cc1` gave an IC50 of 26500 nM (bovine CNG channel; ion current, pore blocker, inside-out patch clamp; Xenopus oocytes; 20 °C, +60 mV, pH 7.2, added: cGMP 2 mM).
`CN(C)CCOc1cc(NC(=O)c2cc(Cl)cc(C(=O)Nc3cc(OCCN(C)C)c4ccccc4n3)n2)nc2ccccc12` has a ΔTm of 11.5 ± 0.9 K (Bcl2 G-quadruplex DNA; FRET melting; 1 µM, pH 7.4, added: 60 mM potassium).
Under “log2 fold change”, `c1ccc(-c2n[nH]cc2-c2ccnc3ccccc23)nc1` is recorded as 0.949 (orf19.4518 kinase Candida albicans; MIB/MS competition binding; Candida albicans cell lysate; 100 nM; baseline: DMSO, lower = stronger binding).
With `COc1cc(NCCCC(C)N)c2nccc(Cl)c2c1` (centres unmarked) the IC50 was greater than 22000 nM (Hsp90, human cancer cell lysate; binding, fluorescence polarization).

Some of these lines once more:
`COc1cc(C(=O)Nc2cc(OC)c3ccccc3n2)nc(C(=O)Nc2cc(OC)c3ccccc3n2)c1` has a ΔTm of 0.3 ± 0.3 K (Bcl2 G-quadruplex DNA; FRET melting; 1 µM, pH 7.4, added: 60 mM potassium).
`NCCCOc1cc(NC(=O)c2cc(OCCN)cc(C(=O)Nc3cc(OCCCN)c4ccccc4n3)n2)nc2ccccc12` has a ΔTm of 21 ± 1 K (Bcl2 G-quadruplex DNA; FRET melting; 1 µM, pH 7.4, added: 60 mM potassium).
`NCCCOc1cc(NC(=O)c2cccc(C(=O)Nc3cc(OCCCN)c4ccccc4n3)n2)nc2ccccc12` has a ΔTm of 22.7 ± 0.7 K (Bcl2 G-quadruplex DNA; FRET melting; 1 µM, pH 7.4, added: 60 mM potassium).
